# Measured values from different studies.
# Every numbered part comes from another study and shows a few of its results, in no order.

# Series 1 — technique: RNA Bind-n-Seq; molecule type: RNA; sample: in vitro; tested at: 1 µM; notes: whole 134-nt RNA, ends assumed; with: 150 mM KCl; baseline: input library; direction: higher = stronger binding
# Target: Ras GTPase-activating protein-binding protein 1, RRM domain (G3BP1, Homo sapiens, UniProt Q13283)
# Chain of UniProt Q13283 (whole entry, looked up): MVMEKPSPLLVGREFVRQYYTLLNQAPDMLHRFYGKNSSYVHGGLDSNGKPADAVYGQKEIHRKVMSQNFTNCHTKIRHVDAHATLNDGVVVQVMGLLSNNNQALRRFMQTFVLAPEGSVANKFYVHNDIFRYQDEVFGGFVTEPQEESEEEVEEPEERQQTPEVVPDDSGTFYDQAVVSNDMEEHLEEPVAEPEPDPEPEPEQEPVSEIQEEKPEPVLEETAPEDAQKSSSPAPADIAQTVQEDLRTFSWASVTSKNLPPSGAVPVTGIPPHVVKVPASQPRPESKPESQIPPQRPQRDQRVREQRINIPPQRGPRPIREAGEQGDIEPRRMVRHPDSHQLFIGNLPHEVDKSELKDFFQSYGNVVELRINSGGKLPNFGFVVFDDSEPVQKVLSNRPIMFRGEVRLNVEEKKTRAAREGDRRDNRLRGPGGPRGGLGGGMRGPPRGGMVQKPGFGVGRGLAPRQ
# Shared flanks, not repeated: GGGAGUUCUACAGUCCGACGAUC … UGGAAUUCUCGGGUGUCAAGG
Oligonucleotide,log2 enrichment
AAGUCCUGUGCUACACAUCGUAUGUACCGAAUCGGGUGGGAAAAAAAGGGUUUGGGAAAGUAUUAUGUUACGCCGUUCGGAUCUGCACUU,0.659
CCUCAAGUCCUGUGCUACACAUCGUAUGUACCGAAUCGGGGCGGGCGGGGCGGAAAGUAUUAUGUUACGCCGUUCGGAUCUGCACUUCCA,0.083
UUUCGGCUACCCCCAGUUCUUCUUUGCCAAAGCGUACACGUGAAGAGGAAGAGGAUAGCACCAUAGAAGCAUCAGACCAAGUCUCUGAUG,-0.176
AGUCCUGUGCUACACAUCGUAUGUACCGAAUCGGGUGGGAAAAAAAGGGUUUUUGGGAAAGUAUUAUGUUACGCCGUUCGGAUCUGCACU,0.503
AGUCCUGUGCUACACAUCGUAUGUACCGAAUCGGGGUUUGGGGUGGGGAAAAAGGGGAAAGUAUUAUGUUACGCCGUUCGGAUCUGCACU,0.838
UUUUACAUUUAUACACAUGUAUUGGCUUCCUUUUACACUAUUAGGCGGUCAAGAAGCAGAUCGAGACGGCGGUCACAUUCUAAGUCUAGG,-0.004
UAACUUUAGAGGAGAAUCUGAUGGAUAUGGCAGUGGACGUGGAUUUGGGGAUGGCUAUAAUGGGUAUGGAGGAGGACCUGGAGGUGGCAA,-0.866
GCAGGAAGUAAAAACAAAUGGAAAUGCUUCGGAUAGUGGCAGGAAAGGGGGUUGCUAAGGAAAGGGUGGGAUGGGAGUGGGUAAAGAGUU,1.25
UAACUUUAGAGAAGGAUCUGAUGGAUAUGGCAGUGGACGUGGAUUUGGGGAUGGCUAUAAUGGGUAUGGAGGAGGACCUGGAGGUGGCAA,-0.874

# Series 2 — technique: universal PBM; molecule type: double-stranded DNA, one strand shown; sample: in vitro; tested at: 600 nM; direction: higher = stronger binding
# Target: Sal-like protein 4, full length isoform A (SALL4, Homo sapiens, UniProt Q9UJQ4, residues 1-1053)
# Chain of UniProt Q9UJQ4 (whole entry, looked up): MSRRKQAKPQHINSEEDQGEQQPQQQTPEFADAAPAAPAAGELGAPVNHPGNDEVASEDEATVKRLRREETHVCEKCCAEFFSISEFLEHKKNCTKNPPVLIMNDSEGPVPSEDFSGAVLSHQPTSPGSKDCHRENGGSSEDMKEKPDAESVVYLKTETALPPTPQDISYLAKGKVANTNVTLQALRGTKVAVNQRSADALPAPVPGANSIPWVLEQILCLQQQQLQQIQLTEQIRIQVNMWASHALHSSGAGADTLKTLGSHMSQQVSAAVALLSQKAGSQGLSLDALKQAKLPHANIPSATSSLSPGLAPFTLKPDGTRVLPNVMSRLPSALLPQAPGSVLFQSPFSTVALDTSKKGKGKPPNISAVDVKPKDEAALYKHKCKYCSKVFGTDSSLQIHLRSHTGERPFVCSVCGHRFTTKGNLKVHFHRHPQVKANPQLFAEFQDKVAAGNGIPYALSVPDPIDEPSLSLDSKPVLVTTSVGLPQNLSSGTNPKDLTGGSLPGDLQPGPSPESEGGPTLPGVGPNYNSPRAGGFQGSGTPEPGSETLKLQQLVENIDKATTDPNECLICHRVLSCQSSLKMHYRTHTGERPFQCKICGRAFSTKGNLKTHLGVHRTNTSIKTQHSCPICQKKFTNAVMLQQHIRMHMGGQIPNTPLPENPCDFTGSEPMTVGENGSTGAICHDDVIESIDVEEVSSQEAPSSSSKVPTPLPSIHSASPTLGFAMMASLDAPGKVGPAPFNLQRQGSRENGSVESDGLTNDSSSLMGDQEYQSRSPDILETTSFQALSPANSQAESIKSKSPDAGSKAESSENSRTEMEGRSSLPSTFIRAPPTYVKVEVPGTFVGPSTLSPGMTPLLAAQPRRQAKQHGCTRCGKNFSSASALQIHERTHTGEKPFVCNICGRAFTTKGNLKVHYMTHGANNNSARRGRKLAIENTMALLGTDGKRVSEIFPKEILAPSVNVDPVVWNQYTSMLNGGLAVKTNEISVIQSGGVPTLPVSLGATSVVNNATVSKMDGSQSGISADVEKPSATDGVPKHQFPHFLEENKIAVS
# Notes: 8-mer, flanks averaged, mean of replicates
Oligonucleotide,E-score
ACCGTAAA,0.154
AAGGGTTC,-0.147
ATGGCGTC,-0.164
CTGGCTAC,-0.129
AAGGGTGT,-0.0943
AAGCAACA,0.0419
ATGCCGTC,-0.136
AGATGCTC,-0.162
CGTCCAAG,-0.251
GGTCTGCA,-0.16
CATCGGTC,-0.127
TACTTAGA,0.117
CAGGTCTC,-0.219
AAATACCC,0.0103
ATCTATGG,-0.0675
CTTTTTGA,0.193
ACTGACGC,-0.135

# Series 3 — technique: RNA Bind-n-Seq; molecule type: RNA; sample: in vitro; tested at: 365 nM; baseline: no-protein control; direction: higher = stronger binding
# Target: RNA binding protein fox-1 homolog 2, RRM domain, GST-SBP tag (RBFOX2, Homo sapiens, UniProt O43251-10, residues 100-194)
# Notes: natural RNA segment, single round, ends assumed
# Shared flanks, not repeated: GGGAGUUCUACAGUCCGACGAUC … UGGAAUUCUCGGGUGCCAA
# Construct (chain): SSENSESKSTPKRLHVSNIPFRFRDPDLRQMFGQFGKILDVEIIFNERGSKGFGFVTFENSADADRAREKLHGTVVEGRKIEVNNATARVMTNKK
Oligonucleotide,RBNS enrichment (R)
UUUAAAGGCAAGUGGUGUCCAAGAAACAGAGCAUCCUUCCUGCCGUUCAACGCUCAGCUUUUCCGAAAACCUAAAGCUUGUGUUCUCUUUGCUUUGACUGCAAAUUGUAC,0.396
CAGUAGGCAUAAUUCAGCAACAAACAAUCUUCCUUUGGGAGAAACCUGUUCAUUCCAAUCUUCUAAUUACAGUGGUUCCUAUCUCAGGGAUACUGGACUUUCUGACGCAG,0.252
AACAUACCACUUCUUUGUUUAACUCCUUUACCUUUCCAGCCCUUUGAGGAGGGACCAUGAGAACAGAAAUUACCUUAUGAAAAGCUACUUCUGUUCCUGCUUUCCCUCUC,0.436
AUCGCUCCAGGAGUCUACGCUGUCGUGGAAAUUGUGCCCACCCCCAUCUGUGUGUUGUAGCCACUCACUGUUCACAUCGAGUGUCUCUAGUAACUGCCUCUGGACUCGGA,0.327
UCUGCCUCUGACACACCCUUCUCGCUGCCCUGAGCCCCGGAGGCAGCCAUGGGAGGCAGCCUGCAUACCUGGAAGCCAGCUGCACAGUGCUGUGGGGAAACAGAAGCGUU,0.378
UCAACCUGAGACCAAUAUGCCAGGCCAAGCACAGCCUCCUGGUAUCUCUGGAGCACAACUACAGCAAACCUCCUCAGUGCCUACGGGACUUGCCAGCAGUGGAGCAUGCA,1.44
AGCGCCCCUGCUGCACCGCGAAUCCCUCGCCGACUCCUGGUCCCAUCCGCCUCCUCUGCAGCAGCCAGUGUGCUGCUCGAGGGUGUUGGGGGGUCCACCCGCCUCCAUCU,0.182
UCAUUUUAGAAGUAGACAGAAAAAAAUAUCUAAGCUCAGGUAAUACUGAAAAAGCCAAAAUGUUUUGUUUCGUUUCUUUUUUUUUUUUUUUUUUAAAGAUAAACUUGUGU,1.06

# Series 4 — technique: protein binding microarray; molecule type: double-stranded DNA, one strand shown; sample: in vitro; tested at: not given; baseline: not given; direction: higher = stronger binding
# Target: Histone acetyltransferase KAT6A, winged helix 1, GST fusion (KAT6A, Homo sapiens, UniProt Q92794, residues 1-85)
# Notes: 8-mer, flanks averaged, mean of 2 arrays, mostly near background
# Construct (chain): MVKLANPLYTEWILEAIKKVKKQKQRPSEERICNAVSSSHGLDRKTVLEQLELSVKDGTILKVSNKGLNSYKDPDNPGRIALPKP
Oligonucleotide,E-score
CACAAAAA,-0.0773
ACTTTGCG,0.0763
AAATCGGT,-0.0464
GTATATCA,0.0345
AAGGCAAT,-0.2
AACGCTGA,0.169
GAGTTGCA,-0.229
AAGTGCCC,-0.14
ACTTCAGG,-0.126
CCTTGTGA,-0.0945
GGGGAAAC,0.151
AAAGGCGC,0.256
GCTGATAA,0.0192
ATTGTTCA,-0.112
TTGCTAAA,-0.116
AACCGCAT,0.175
CATGTCGA,-0.122
ATAGGTAG,-0.318
AGTGTCCA,-0.209
AGAGCGGA,0.151
CGAGACTC,-0.0709
AGGTAGTA,0.0364
CACGTAAG,-0.0582
ATTCGGTG,-0.199
GTACCCTA,-0.101

# A few entries again (series 4):
Oligonucleotide,E-score
GTATATCA,0.0345
AAGGCAAT,-0.2
AACGCTGA,0.169
GAGTTGCA,-0.229
AAGTGCCC,-0.14
ACTTCAGG,-0.126
CCTTGTGA,-0.0945
